{"data": "Experimental data from different studies", "note": "Each numbered part is a random draw from the data of one study; scales do not carry over between parts."}
{"data": "Sample 1", "target": "Histone acetyltransferase KAT6A, winged helix 2, GST fusion (KAT6A, Homo sapiens, UniProt Q92794, residues 85-181)", "method": "protein binding microarray", "molecule type": "double-stranded DNA, one strand shown", "sample": "in vitro", "concentration": "not given", "setting": "8-mer, flanks averaged, mean of 2 arrays, mostly near background", "relative to": "not given", "reading": "higher = stronger binding", "Target sequence (chain)": "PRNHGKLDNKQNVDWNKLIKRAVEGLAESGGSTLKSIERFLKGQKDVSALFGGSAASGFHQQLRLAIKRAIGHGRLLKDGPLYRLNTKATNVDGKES"}
{"Strand": "TGCCCTAA", "E-score": 0.0544}
{"Strand": "CTTTAAGA", "E-score": 0.156}
{"Strand": "ACGAGCCA", "E-score": 0.0483}
{"Strand": "GGGCATAC", "E-score": 0.108}
{"Strand": "CCCAAGTA", "E-score": -0.0668}
{"data": "Sample 2", "target": "Sal-like protein 4, full length isoform B (SALL4, Homo sapiens, UniProt Q9UJQ4-2, residues 1-616)", "method": "universal PBM", "molecule type": "double-stranded DNA, one strand shown", "sample": "in vitro", "concentration": "not given", "setting": "8-mer, flanks averaged, mean of replicates", "reading": "higher = stronger binding", "Target sequence (chain)": "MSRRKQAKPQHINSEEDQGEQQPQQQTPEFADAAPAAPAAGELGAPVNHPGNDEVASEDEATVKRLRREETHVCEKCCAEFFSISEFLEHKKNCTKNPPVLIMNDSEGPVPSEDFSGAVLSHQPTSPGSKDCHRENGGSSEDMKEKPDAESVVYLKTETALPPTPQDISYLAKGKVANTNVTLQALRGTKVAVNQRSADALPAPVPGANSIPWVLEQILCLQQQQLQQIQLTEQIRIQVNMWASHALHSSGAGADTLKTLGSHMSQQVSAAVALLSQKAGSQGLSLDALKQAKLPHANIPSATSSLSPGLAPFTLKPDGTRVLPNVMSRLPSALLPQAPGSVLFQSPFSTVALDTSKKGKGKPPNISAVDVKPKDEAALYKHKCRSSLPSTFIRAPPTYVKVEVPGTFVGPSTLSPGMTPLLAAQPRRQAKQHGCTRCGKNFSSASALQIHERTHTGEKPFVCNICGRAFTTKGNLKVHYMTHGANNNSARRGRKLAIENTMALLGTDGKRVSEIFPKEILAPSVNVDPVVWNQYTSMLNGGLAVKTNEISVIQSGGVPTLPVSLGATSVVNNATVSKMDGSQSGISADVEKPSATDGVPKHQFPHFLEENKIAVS"}
{"Strand": "GCCTCACC", "E-score": -0.258}
{"Strand": "GCTGTCAC", "E-score": -0.0268}
{"Strand": "ATGGCTTA", "E-score": 0.0737}
{"Strand": "GCCAGTCA", "E-score": -0.153}
{"data": "Sample 3", "target": "Ras GTPase-activating protein-binding protein 1, C-terminal RGG region (G3BP1, Homo sapiens, UniProt Q13283)", "method": "RNA Bind-n-Seq", "molecule type": "RNA", "sample": "in vitro", "concentration": "1 µM", "setting": "whole 134-nt RNA, ends assumed", "with": "150 mM KCl", "relative to": "input library", "reading": "higher = stronger binding", "sequence of UniProt Q13283 (whole entry, looked up)": "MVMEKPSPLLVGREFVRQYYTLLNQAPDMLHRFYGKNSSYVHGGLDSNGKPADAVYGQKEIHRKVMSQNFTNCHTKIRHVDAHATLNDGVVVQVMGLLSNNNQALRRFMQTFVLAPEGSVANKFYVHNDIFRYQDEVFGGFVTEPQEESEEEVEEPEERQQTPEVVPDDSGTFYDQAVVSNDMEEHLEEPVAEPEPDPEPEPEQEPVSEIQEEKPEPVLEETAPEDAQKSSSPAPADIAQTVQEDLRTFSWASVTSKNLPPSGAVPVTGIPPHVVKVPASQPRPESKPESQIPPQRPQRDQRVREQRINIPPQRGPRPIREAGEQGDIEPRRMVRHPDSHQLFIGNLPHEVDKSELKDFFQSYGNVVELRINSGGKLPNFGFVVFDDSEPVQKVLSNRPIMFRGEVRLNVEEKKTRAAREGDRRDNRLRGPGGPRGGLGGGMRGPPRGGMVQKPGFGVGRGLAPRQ"}
{"Strand": "GGGAGUUCUACAGUCCGACGAUCACCAUGCAGGUGGGCAUCUUUGGGAAGUGGGGCAAGGGGGGGAUAGGGAGGGGGGUAACACUUAGGGAACAGGUGGUCCCAGGUCGUUUCUGGAAUUCUCGGGUGUCAAGG", "log2 enrichment": 2.35}
{"Strand": "GGGAGUUCUACAGUCCGACGAUCCAAGUCCUGUGCUACACAUCGUAUGUACCGAAUCGGUGGUUUUUUUGGUUUUUGGAAAGUAUUAUGUUACGCCGUUCGGAUCUGCACUUCUGGAAUUCUCGGGUGUCAAGG", "log2 enrichment": -1.39}
{"Strand": "GGGAGUUCUACAGUCCGACGAUCCCUCAAGUCCUGUGCUACACAUCGUAUGUACCGAAUCGGAGGGGAGGGAGGGAAAGUAUUAUGUUACGCCGUUCGGAUCUGCACUUCCAGUGGAAUUCUCGGGUGUCAAGG", "log2 enrichment": 1.3}
{"Strand": "GGGAGUUCUACAGUCCGACGAUCCCUCAAGUCCUGUGCUACACAUCGUAUGUACCGAAUCGGAGGGGAGGGGAGGAAAGUAUUAUGUUACGCCGUUCGGAUCUGCACUUCCAGUGGAAUUCUCGGGUGUCAAGG", "log2 enrichment": -0.64}
{"data": "Other studies, line by line"}
{"Molecule": "PhoQ, residues 284 288 289 292 302 303 AQGLTV", "target": "PhoP, residues 12 14 15 18 19 NQAHL (Escherichia coli, UniProt P23836)", "assay": "Sort-seq, refers to: YFP reporter", "test system": "E. coli", "setting": "PhoQ-PhoP variant library, with: 10 µM Mg2+", "scale": "relative to: high Mg2+ state, higher = stronger signaling", "quantity": "fold induction", "value": 0.833}
